Published values gathered from unrelated publications.
Lines come from different studies, so protocols differ.
Route: oral

`CC(C)(Sc1ccncc1-c1ccc(C#N)c2ccccc12)C(=O)O` — result for “renal clearance (0-24 h)”: 21.8 mL/min (healthy Japanese males; 2.5 mg once daily, day 12, fed, geometric mean).
With `COc1ccc(-n2nc(C(N)=O)c3c2C(=O)N(c2ccc(N4CCCCC4=O)cc2)CC3)cc1` the renal clearance was roughly 20 mL/min (healthy Chinese subjects; 10 mg single and multiple).
With `C[C@@H]1[C@H](c2c(F)ccc(F)c2F)C[C@H](NC(=O)c2cnc3c(c2)C[C@@]2(C3)C(=O)Nc3ncccc32)C(=O)N1CC(F)(F)F` the renal clearance was roughly 20 mL/min (healthy men; 50 mg).
For `O=C(c1cccnc1-c1ccncc1)N1CCC(O)(Cc2ccccc2)CC1`, the renal clearance was 5.83 mL/min (healthy subjects, urine; 300 mg twice daily, day 1).
With `Nc1cc(F)ccc1NC(=O)c1ccc(CNC(=O)/C=C/c2cccnc2)cc1` the renal clearance was 28.2 mL/min (Japanese patients, urine; 40 mg twice weekly, cycle 1 day 25).
`CC(C)(Sc1ccncc1-c1ccc(C#N)c2ccccc12)C(=O)O` has a renal clearance of 7.87 mL/min (male, urine; 15 mg, 72 h, moderate renal impairment).
For `CS(=O)(=O)n1cc2c(n1)CN([C@H]1CO[C@H](c3cc(F)ccc3F)[C@@H](N)C1)C2`, the renal clearance was 30 mL/min (healthy male; 10 mg single dose, fasted, geometric mean).
`O=C(NC[C@H]1CN(c2ccc(N3CCOCC3=O)cc2)C(=O)O1)c1ccc(Cl)s1` has a renal clearance of 23.3 mL/min (mild renal impairment patients; 10 mg, arithmetic mean).
